{"data": "Assay results collected from several papers", "note": "Parts stem from different laboratories: compare values within a part only."}
{"data": "Sample 1", "target": "PABPC1L2, full length, GST fusion (mouse, UniProt A0ABA7IW68)", "technique": "RNAcompete", "molecule type": "RNA", "matrix": "in vitro", "concentration": "20 nM", "notes": "7-mer, probes averaged, single round", "reference": "mean of 7-mers", "direction": "higher = stronger binding", "Construct (chain)": "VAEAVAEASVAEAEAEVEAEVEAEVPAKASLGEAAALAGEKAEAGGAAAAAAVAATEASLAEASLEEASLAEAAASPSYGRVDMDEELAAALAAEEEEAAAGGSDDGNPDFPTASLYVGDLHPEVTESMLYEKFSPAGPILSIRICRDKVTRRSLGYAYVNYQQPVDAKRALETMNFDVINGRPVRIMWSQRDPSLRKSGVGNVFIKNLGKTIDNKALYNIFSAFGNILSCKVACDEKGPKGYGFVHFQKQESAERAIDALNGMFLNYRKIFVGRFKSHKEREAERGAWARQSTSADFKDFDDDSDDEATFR"}
{"Sequence": "UAUGUCC", "7-mer Z-score": -0.304}
{"Sequence": "UGUUUGC", "7-mer Z-score": -0.407}
{"Sequence": "CAUAAGU", "7-mer Z-score": -0.103}
{"Sequence": "GAUCGUU", "7-mer Z-score": -0.356}
{"Sequence": "AGCCUUU", "7-mer Z-score": -0.244}
{"Sequence": "GCGCAUG", "7-mer Z-score": -0.209}
{"data": "Sample 2", "target": "Phosphate system positive regulatory protein PHO4, full length, GST-tagged (PHO4, Saccharomyces cerevisiae, UniProt P07270, residues 1-312)", "technique": "competition protein-binding microarray", "molecule type": "double-stranded DNA, one strand shown", "matrix": "in vitro", "concentration": "2 µM", "notes": "whole 60-bp probe, lowest competitor level", "added": "Cbf1 competitor, 0.05 µM", "direction": "higher = stronger binding", "Construct (chain)": "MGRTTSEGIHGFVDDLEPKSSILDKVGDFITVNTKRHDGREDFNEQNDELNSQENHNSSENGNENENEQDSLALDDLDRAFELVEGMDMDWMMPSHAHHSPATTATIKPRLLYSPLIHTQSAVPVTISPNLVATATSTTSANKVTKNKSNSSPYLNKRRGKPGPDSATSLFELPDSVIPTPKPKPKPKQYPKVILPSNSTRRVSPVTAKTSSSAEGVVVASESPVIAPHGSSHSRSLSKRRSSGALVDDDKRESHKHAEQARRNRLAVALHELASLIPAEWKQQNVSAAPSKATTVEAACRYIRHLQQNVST"}
{"Sequence": "CTTTCCCGATCTTGTAAGGTGGGTGTAGCACATTTGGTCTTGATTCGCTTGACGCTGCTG", "fluorescence intensity [a.u.]": 4560}
{"Sequence": "CGGGGTTAAGTTTGTACCGTGGGTGGCTTGCAGCAGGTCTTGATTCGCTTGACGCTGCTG", "fluorescence intensity [a.u.]": 5990}
{"Sequence": "CGTAGTATGGCAATATTCGTGGGTATAACATTCTGCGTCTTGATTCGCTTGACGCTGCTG", "fluorescence intensity [a.u.]": 5590}
{"Sequence": "AAGGGCCAATTCGGCCATGTGTGAGTAAGATCGCAAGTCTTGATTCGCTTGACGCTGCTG", "fluorescence intensity [a.u.]": 7520}
{"Sequence": "GGAGACGAAGGATGGGGCGTGCTGTCATTAGAGGTAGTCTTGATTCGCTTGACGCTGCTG", "fluorescence intensity [a.u.]": 10300}
{"Sequence": "GTCTTGTCTCATTGATAGGTGGGTGTCCCCACTTCAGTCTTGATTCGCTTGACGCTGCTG", "fluorescence intensity [a.u.]": 5140}
{"Sequence": "GTCTTGTCTCATTGCCTCGTGGGTGTCCCCACTTCAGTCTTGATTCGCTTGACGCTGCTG", "fluorescence intensity [a.u.]": 11900}
{"Sequence": "CACAGTGGTAACGGCACCGTGGCCGGGAAACGGTTCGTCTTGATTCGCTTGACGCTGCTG", "fluorescence intensity [a.u.]": 7110}
{"Sequence": "AGTAATGTCTTTCAACACGTCAACAACTCCTCGGGAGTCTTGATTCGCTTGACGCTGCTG", "fluorescence intensity [a.u.]": 4800}
{"data": "Sample 3", "target": "Prothrombin, mature alpha-thrombin (F2, Homo sapiens, UniProt P00734)", "technique": "aptamer microarray, sandwich", "molecule type": "DNA with 2'F-ANA", "matrix": "in vitro", "concentration": "200 nM", "notes": "whole 15-mer aptamer, many near background", "added": "Cy3 exosite-II aptamer, 400 nM", "direction": "higher = stronger binding", "sequence": "GGTTGGTGTGGTTGG"}
{"Modification": "2'F-ANA at 3 5 6 7 11 12 13 14 15", "mean fluorescence intensity [a.u.]": 57.5}
{"Modification": "2'F-ANA at 1 2 3 4 5 6 7 8 9 10 11 13 14 15", "mean fluorescence intensity [a.u.]": 57.8}
{"Modification": "2'F-ANA at 1 3 8 9 10 12 15", "mean fluorescence intensity [a.u.]": 117}
{"Modification": "2'F-ANA at 1 3 4 5 6 7 8 11 12 13 14 15", "mean fluorescence intensity [a.u.]": 49.7}
{"Modification": "2'F-ANA at 2 6 12 13 15", "mean fluorescence intensity [a.u.]": 508}
{"Modification": "2'F-ANA at 2 3 4 7 8 9 10 12 13 14", "mean fluorescence intensity [a.u.]": 199}
{"Modification": "2'F-ANA at 1 2 3 5 6 7 14 15", "mean fluorescence intensity [a.u.]": 48.4}
{"data": "Further values, each from its own experiment"}
{"Molecule": "PhoQ, residues 284 288 289 292 302 303 AGCYAI", "target": "PhoP, residues 12 14 15 18 19 LWHVM (Escherichia coli, UniProt P23836)", "test": "Sort-seq, refers to: YFP reporter", "system": "E. coli", "conditions": "PhoQ-PhoP variant library, added: 10 µM Mg2+", "scale": "reference: high Mg2+ state, higher = stronger signaling", "measurement": "fold induction", "result": 19.8}
